# Measurements from different studies.
# Numbered parts are unrelated; each lists some results of a single study. Substitutions count along the parent as printed.

# Block 1
# Target: Ras GTPase-activating protein-binding protein 1, full length (G3BP1, Homo sapiens, UniProt Q13283)
# UniProt Q13283, sequence (whole entry, looked up): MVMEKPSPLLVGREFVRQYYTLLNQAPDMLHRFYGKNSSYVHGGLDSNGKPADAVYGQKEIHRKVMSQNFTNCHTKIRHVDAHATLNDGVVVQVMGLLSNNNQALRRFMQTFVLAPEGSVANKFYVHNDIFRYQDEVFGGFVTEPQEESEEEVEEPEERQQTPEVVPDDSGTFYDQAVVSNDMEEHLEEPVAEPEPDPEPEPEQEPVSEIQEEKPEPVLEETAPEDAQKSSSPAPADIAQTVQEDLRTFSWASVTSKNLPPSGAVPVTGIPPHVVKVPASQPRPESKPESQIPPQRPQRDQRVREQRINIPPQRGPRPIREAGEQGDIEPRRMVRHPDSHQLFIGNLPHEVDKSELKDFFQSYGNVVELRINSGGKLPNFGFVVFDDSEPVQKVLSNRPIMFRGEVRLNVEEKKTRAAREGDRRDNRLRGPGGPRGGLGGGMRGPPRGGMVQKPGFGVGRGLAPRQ
# Technique: RNA Bind-n-Seq
# Molecule type: RNA
# Medium: in vitro
# Tested at: 200 nM
# Notes: whole 134-nt RNA, ends assumed
# Added: 150 mM LiCl
# Reference: input library
# Reading: higher = stronger binding
# Each molecule: 7-deaza-guanosine replaces G
# All sequences stand within: GGGAGUUCUACAGUCCGACGAUC … UGGAAUUCUCGGGUGUCAAGG
Oligonucleotide,log2 enrichment
UGGGAGGUGGAUUUUGUAUAUUUUUUUAGCUCAUUUCCAGGGGUGGGAAUUUUUUUUUAAUAUGUGUCAUGAAUAAAGUUGUUUUUGAAA,0.0322
AAGUCCUGUGCUACACAUCGUAUGUACCGAAUCGGUUUUUGGAAAAAAAGGAAAGGAAAGUAUUAUGUUACGCCGUUCGGAUCUGCACUU,-2.1
AGUCCUGUGCUACACAUCGUAUGUACCGAAUCGGGUUUUGGGGUUUUGGGGUUUUGGAAAGUAUUAUGUUACGCCGUUCGGAUCUGCACU,-0.248
AAGUCCUGUGCUACACAUCGUAUGUACCGAAUCGGUUUUUUUGGAGGUUUUUUUGGAAAGUAUUAUGUUACGCCGUUCGGAUCUGCACUU,-1.13
GCAGGAAGUAAAAACAAAUGGAAAUGCUUCGGAUAGUGGCAGGGGUGGGGGUUGCUAAGGAAAGGGUGGGAUGAGAGUGGGUAAAGAGUU,0.0861
CCUGUGCUACACAUCGUAUGUACCGAAUCGGGGUUUUUGGGGUUUUUGGGGUUUUUGGGGAAAGUAUUAUGUUACGCCGUUCGGAUCUGC,0.604
CAAGUCCUGUGCUACACAUCGUAUGUACCGAAUCGGGAGGGAAAGGGUUUUUGGGAAAGUAUUAUGUUACGCCGUUCGGAUCUGCACUUC,-0.517
UUAAGAAUAUUUAGAUAUUUGUAAAAGAAUUUGAAUGAUUUAUUUAAUAUAACGUUUAUUUUAUUAGCUCUAUUCCAAUUGAUUACAACC,-2.65

# Block 2
# Target: ABI1, truncated, D143A, DHFR fusion (Arabidopsis thaliana)
# Technique: DHFR PCA, deep sequencing
# Medium: yeast
# Notes: methotrexate growth selection, single substitutions
# Added: (+)-ABA 2500 µM
# Reference: wild-type fitted maximum
# Reading: higher = stronger binding
# Parent: PYL1, truncated, DHFR fusion (Arabidopsis thaliana); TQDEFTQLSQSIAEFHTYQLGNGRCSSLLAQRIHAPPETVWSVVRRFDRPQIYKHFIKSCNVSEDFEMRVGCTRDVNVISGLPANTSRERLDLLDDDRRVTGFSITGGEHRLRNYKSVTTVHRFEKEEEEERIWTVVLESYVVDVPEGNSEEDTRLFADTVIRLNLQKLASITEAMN
Substitution,relative binding score [%]
D153C,80.3
D159P,-3.48
C25P,68.2
V121G,1
I162G,53.8
R123T,104
R90T,98.4
V136Y,106
V142C,98.6
R132W,95.1
W41H,38.3
L156P,15.8
L82Y,67.7
F47S,-0.254
D97I,108

# Block 3
# Target: CCND3, cyclin fold, Cln2 fusion (human)
# Technique: yeast growth competition, sequencing
# Medium: yeast
# Notes: weak parent motif
# Reference: not given
# Reading: higher = stronger binding
# Parent: CDKN1B docking peptide (human); PSACRNLFGPVDH; partner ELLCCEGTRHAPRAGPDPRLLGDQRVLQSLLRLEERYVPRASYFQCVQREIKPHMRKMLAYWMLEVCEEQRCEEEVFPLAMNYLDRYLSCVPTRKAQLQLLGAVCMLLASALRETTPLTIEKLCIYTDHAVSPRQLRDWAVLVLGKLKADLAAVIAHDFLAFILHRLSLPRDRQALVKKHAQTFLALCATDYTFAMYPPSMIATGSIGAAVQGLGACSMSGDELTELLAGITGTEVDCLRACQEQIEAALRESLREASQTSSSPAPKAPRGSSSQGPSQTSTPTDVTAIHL
Substitution,normalised enrichment score
PSACRYLFGPVDH [N6Y],0.0949
PSACRNLFGPRDH [V11R],0.0495
PSACRNLFAPVDH [G9A],0.139
PSACRNLPGPVDH [F8P],0.112
PSACRNLFGPVSH [D12S],0.0559
PSACRNLLGPVDH [F8L],0.159
PSACRNLFYPVDH [G9Y],0.144
PSACRNLFGDVDH [P10D],0.207
PSACRNLTGPVDH [F8T],0.128
PCACRNLFGPVDH [S2C],0.0911
CSACRNLFGPVDH [P1C],0.097
PSACRNLFWPVDH [G9W],0.123
PSACCNLFGPVDH [R5C],0.0522
PSACRALFGPVDH [N6A],0.125
PSACRNLFEPVDH [G9E],0.127
PSACGNLFGPVDH [R5G],0.0872
PSACKNLFGPVDH [R5K],0.185
PSACRNLFGSVDH [P10S],0.135
PSACRNIFGPVDH [L7I],0.199
PSAARNLFGPVDH [C4A],0.177
PSACRNLFGPVLH [D12L],0.124
PRACRNLFGPVDH [S2R],0.129
PSACRNLFIPVDH [G9I],0.15

# Single results of other studies
Molecule,target,assay,system,conditions,how to read,quantity,result
"PhoQ, residues 284 288 289 292 302 303 SIHMAM","PhoP, residues 12 14 15 18 19 VHTVL (Escherichia coli, UniProt P23836)","Sort-seq, item: YFP reporter",E. coli,"PhoQ-PhoP variant library, added: 10 µM Mg2+","reference: high Mg2+ state, higher = stronger signaling",fold induction,7.84

# Excerpt of the above (block 3):
Substitution,normalised enrichment score
PSACRNLFWPVDH [G9W],0.123
PSACCNLFGPVDH [R5C],0.0522
PSACRALFGPVDH [N6A],0.125
PSACRNLFEPVDH [G9E],0.127
PSACGNLFGPVDH [R5G],0.0872
PSACKNLFGPVDH [R5K],0.185
PSACRNLFGSVDH [P10S],0.135
